Results from different studies.
A part holds a random share of what one study measured.
Chain of UniProt P23975 (whole entry, looked up): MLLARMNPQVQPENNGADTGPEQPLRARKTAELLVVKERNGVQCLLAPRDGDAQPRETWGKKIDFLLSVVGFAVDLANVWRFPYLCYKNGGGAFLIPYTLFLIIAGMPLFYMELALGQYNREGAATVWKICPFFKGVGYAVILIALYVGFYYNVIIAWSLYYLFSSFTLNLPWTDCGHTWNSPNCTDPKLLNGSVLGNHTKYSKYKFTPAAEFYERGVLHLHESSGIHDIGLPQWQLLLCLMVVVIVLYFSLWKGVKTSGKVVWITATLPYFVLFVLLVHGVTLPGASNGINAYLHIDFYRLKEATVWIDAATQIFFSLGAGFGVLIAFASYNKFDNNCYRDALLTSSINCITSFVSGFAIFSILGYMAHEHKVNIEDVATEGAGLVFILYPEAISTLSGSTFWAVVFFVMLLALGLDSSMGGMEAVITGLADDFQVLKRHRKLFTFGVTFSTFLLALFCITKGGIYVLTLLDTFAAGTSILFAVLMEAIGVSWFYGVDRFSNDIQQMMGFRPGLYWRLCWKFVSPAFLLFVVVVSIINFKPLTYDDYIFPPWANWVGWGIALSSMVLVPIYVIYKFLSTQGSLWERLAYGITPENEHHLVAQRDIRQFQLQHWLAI
Chain of UniProt Q5S007 (whole entry, looked up): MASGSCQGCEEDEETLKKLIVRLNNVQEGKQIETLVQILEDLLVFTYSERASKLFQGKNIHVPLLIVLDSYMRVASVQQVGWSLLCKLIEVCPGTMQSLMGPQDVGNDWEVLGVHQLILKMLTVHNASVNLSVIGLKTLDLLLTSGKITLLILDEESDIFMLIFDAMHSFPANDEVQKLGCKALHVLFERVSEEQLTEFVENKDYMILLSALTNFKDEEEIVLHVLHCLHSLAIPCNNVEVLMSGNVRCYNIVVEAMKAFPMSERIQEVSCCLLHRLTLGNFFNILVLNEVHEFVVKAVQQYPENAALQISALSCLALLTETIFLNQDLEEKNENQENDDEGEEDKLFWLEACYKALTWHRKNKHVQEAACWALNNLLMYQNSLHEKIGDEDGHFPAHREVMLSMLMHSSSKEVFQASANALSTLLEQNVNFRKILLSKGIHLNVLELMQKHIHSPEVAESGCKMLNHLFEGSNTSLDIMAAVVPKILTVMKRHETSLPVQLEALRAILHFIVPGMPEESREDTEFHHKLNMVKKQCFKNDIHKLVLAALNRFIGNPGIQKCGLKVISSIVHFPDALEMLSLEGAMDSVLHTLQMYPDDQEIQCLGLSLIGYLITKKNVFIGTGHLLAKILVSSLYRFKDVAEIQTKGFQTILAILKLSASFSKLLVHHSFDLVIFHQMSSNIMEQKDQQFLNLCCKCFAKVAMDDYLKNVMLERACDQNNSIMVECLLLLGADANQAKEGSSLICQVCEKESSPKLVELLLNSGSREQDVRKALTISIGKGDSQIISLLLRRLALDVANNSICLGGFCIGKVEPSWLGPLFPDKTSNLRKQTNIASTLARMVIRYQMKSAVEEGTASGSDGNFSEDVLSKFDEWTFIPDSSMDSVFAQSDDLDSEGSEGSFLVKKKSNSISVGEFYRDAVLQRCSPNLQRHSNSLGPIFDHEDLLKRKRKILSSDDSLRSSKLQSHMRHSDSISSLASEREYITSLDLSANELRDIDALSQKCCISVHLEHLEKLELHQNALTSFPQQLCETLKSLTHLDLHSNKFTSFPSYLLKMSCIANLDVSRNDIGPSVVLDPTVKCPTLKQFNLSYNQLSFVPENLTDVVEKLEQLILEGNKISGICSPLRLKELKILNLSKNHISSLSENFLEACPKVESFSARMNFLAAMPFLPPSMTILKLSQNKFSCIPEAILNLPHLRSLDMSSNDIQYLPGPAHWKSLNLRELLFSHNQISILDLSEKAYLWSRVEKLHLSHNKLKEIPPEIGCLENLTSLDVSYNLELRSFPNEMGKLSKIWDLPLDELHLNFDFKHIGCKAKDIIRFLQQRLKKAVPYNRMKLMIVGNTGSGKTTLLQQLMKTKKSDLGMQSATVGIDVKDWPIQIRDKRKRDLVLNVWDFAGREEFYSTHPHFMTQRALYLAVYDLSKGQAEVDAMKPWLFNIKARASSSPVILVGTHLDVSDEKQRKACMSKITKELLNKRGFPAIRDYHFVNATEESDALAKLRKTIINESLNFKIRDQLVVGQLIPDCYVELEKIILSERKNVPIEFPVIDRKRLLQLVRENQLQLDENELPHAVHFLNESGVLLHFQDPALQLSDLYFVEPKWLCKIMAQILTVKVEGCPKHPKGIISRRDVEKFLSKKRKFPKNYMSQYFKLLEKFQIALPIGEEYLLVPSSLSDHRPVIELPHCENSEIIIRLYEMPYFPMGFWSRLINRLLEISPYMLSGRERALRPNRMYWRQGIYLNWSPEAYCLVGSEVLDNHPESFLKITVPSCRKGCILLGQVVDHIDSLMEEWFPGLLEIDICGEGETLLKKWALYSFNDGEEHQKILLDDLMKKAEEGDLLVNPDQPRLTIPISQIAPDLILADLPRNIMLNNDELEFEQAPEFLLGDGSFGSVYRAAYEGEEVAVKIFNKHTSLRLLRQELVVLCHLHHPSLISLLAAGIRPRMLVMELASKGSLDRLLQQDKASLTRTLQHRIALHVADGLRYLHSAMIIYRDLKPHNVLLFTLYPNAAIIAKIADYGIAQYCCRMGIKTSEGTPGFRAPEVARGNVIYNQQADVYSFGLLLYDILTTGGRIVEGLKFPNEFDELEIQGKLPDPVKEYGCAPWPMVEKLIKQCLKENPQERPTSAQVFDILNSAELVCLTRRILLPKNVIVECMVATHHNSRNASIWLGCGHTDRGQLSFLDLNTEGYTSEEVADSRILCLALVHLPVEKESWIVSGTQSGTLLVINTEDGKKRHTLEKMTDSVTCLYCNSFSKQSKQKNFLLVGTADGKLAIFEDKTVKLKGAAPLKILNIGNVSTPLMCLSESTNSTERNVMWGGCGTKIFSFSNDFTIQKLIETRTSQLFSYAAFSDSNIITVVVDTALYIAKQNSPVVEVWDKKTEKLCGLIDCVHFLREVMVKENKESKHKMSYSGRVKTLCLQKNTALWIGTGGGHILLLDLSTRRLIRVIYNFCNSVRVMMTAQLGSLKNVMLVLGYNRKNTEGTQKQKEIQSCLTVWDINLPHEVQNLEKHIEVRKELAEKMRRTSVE
Chain of UniProt Q13976 (whole entry, looked up): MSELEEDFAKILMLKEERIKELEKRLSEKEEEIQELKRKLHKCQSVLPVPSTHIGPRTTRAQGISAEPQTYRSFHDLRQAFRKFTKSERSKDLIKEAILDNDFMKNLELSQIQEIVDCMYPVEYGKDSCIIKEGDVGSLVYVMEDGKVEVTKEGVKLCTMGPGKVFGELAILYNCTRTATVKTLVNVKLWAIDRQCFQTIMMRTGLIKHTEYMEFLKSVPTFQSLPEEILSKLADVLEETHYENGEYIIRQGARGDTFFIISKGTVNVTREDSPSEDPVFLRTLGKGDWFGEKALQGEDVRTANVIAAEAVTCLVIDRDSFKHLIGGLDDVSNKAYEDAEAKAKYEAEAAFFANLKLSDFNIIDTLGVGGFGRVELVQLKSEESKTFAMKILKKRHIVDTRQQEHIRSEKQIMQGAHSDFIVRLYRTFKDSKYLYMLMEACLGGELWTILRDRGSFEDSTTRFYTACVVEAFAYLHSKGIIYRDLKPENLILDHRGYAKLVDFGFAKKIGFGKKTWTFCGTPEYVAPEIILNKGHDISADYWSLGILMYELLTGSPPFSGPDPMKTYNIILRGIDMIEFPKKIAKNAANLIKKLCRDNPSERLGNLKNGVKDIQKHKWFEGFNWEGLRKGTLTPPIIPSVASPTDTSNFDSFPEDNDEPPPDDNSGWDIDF
Chain of UniProt Q9NWZ3 (whole entry, looked up): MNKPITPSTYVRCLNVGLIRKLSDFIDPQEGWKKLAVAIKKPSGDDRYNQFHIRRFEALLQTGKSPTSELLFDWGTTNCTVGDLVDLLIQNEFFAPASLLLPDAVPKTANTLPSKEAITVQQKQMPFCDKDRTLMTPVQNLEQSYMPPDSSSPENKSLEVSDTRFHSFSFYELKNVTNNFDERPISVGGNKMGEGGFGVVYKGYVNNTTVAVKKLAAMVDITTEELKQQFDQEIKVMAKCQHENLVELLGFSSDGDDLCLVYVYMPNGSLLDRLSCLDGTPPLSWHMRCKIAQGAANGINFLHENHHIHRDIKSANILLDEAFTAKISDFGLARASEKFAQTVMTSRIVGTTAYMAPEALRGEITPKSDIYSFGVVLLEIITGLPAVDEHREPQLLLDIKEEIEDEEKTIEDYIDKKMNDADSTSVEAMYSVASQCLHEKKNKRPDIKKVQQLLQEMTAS
Chain of UniProt P21918 (whole entry, looked up): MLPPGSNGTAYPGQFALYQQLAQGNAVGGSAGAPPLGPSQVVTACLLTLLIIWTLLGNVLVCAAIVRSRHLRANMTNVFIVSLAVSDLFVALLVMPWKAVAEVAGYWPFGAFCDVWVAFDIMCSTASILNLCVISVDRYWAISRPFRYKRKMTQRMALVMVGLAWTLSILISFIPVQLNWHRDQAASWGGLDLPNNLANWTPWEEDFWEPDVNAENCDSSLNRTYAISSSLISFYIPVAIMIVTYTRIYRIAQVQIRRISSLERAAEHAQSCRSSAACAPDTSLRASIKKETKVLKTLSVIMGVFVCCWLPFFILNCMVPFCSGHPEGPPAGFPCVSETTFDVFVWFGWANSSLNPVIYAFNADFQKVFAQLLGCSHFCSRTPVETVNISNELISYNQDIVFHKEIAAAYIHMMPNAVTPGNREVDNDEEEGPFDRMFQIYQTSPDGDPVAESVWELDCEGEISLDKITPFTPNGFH

Set 1
Compound: N/C(=N\[N+](=O)[O-])N/N=C\c1ccc(-c2cccc([N+](=O)[O-])c2)o1
Observed: enzyme activity
Action: inhibitor
Concentration: 0.5 µM
Baseline: control
target | remaining activity
LYN (Homo sapiens, UniProt P07948) | 96.3%
PRKG1 (Homo sapiens, UniProt Q13976) | 87.4%
LRRK2 (Homo sapiens, UniProt Q5S007) | 91%
WNK2 (Homo sapiens, UniProt Q9Y3S1) | 106%
IRAK4 (Homo sapiens, UniProt Q9NWZ3) | 87.3%

Set 2
SMILES: CNC(=O)c1cc(C(=O)N[C@H]2[C@@H]3COC[C@@H]32)cc2c1O[C@H](CF)[C@H]2c1ccccc1
Observed: binding
Technique: radioligand binding
Concentration: 10 µM
target | inhibition
SLC6A2 (Homo sapiens, UniProt P23975) | 0.32%
DRD5 (Homo sapiens, UniProt P21918) | 28.3%
SLC6A3 (Homo sapiens, UniProt Q01959) | -16.9%

Set 3
Cell line: HEK-293T/ACE2
Concentration: concentration not given
Time: 16 (unit not given)
Baseline: vehicle
SMILES | viability
COc1c(C)c2c(c(O)c1C/C=C(\C)CCC(=O)OCCN1CCOCC1)C(=O)OC2 | 94.9%
CCN(CC)C(=S)SSC(=S)N(CC)CC | 95.7%
CC[C@@H](C(N)=O)N1CCCC1=O | 103%
CO[C@H]1/C=C/O[C@@]2(C)Oc3c(C)c(O)c4c(O)c(c(/C=N/N5CCN(C6CCCC6)CC5)c(O)c4c3C2=O)NC(=O)/C(C)=C\C=C\[C@H](C)[C@H](O)[C@@H](C)[C@@H](O)[C@@H](C)[C@H](OC(C)=O)[C@@H]1C | 99.4%
CCN[C@H]1CN(CCCOC)S(=O)(=O)c2sc(S(N)(=O)=O)cc21 | 102%
COc1ccc([C@@H]2Sc3ccccc3N(CCN(C)C)C(=O)[C@@H]2OC(C)=O)cc1 | 103%
COc1c(N2C[C@@H]3CCCN[C@@H]3C2)c(F)cc2c(=O)c(C(=O)O)cn(C3CC3)c12 | 99%
Nc1cc(N2CCCCC2)nc(N)[n+]1[O-] | 99.2%

Mixed results
Structure (SMILES) | cell line | assay | conditions | how to read | measurement | result
CN1CCN(C(=O)O[C@H]2c3nccnc3C(=O)N2c2ccc(Cl)cn2)CC1 | mouse MPNST tumor cells | high-content nuclear imaging, measured: cell number | 10 µM, 12 h, mean of 2 replicates | baseline: plate mean, higher = more cells | nuclei count | 1.91 z-score

Repeated from above (set 1):
target | remaining activity
PRKG1 (Homo sapiens, UniProt Q13976) | 87.4%
